Results from different studies.
± gives the spread as reported.
lecB: Fucose-binding lectin PA-IIL (lecB, Pseudomonas aeruginosa, UniProt Q9HYN5)
Sequence of UniProt Q07741 (whole entry, looked up): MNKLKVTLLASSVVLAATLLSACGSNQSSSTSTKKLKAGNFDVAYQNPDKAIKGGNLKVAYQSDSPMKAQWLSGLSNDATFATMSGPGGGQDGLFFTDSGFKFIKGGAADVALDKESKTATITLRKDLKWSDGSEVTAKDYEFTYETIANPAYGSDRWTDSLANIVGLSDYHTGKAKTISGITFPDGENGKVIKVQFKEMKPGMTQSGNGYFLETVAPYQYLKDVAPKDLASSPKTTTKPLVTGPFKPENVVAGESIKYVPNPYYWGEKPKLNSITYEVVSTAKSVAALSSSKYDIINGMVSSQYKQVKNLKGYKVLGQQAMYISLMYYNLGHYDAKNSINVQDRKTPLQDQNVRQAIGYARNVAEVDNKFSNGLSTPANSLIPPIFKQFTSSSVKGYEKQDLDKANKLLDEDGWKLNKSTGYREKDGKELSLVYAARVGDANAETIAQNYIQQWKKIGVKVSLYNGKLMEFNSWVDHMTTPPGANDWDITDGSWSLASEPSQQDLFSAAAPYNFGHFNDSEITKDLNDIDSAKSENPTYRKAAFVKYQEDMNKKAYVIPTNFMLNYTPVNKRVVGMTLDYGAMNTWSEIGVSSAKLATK
Sequence of UniProt P02550 (whole entry, looked up): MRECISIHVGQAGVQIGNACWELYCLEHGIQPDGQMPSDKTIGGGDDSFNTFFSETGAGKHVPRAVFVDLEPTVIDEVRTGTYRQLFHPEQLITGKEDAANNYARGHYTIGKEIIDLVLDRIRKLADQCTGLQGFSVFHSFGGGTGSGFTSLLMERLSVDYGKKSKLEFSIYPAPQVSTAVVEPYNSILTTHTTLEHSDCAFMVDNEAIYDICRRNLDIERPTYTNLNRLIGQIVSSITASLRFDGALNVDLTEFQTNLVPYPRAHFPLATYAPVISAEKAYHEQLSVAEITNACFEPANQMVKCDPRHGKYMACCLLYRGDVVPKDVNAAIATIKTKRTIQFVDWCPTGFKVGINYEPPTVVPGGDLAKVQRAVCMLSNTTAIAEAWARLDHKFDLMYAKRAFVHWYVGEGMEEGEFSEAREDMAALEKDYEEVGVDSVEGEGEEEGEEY
Sequence of UniProt P17931 (whole entry, looked up): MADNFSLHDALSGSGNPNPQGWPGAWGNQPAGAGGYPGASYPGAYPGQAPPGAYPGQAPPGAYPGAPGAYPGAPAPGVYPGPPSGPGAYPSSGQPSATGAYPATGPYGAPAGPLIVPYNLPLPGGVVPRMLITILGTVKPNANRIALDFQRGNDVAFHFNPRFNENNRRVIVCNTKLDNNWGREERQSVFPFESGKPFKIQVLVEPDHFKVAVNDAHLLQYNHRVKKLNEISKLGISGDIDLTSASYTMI
Sequence of UniProt P25440 (whole entry, looked up): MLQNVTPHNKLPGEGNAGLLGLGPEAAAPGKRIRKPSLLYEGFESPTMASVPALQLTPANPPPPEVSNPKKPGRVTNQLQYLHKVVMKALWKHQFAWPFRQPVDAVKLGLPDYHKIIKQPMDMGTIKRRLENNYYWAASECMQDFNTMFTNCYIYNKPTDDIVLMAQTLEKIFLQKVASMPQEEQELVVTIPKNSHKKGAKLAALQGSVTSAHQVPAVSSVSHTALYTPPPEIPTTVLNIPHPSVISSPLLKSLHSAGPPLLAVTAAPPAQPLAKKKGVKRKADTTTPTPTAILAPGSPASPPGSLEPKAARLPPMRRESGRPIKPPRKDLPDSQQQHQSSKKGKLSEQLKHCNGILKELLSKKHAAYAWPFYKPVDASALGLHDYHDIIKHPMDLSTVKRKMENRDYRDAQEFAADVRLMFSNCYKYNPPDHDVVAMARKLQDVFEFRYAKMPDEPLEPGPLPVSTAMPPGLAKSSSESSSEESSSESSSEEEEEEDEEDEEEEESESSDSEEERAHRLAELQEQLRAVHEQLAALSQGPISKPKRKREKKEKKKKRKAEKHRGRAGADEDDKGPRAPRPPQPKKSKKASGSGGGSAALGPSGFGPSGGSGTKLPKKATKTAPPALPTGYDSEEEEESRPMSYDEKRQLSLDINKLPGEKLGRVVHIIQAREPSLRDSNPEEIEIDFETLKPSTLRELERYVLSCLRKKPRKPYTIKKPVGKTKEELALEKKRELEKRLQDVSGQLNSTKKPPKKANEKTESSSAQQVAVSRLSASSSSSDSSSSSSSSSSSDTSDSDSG
Sequence of UniProt P02554 (whole entry, looked up): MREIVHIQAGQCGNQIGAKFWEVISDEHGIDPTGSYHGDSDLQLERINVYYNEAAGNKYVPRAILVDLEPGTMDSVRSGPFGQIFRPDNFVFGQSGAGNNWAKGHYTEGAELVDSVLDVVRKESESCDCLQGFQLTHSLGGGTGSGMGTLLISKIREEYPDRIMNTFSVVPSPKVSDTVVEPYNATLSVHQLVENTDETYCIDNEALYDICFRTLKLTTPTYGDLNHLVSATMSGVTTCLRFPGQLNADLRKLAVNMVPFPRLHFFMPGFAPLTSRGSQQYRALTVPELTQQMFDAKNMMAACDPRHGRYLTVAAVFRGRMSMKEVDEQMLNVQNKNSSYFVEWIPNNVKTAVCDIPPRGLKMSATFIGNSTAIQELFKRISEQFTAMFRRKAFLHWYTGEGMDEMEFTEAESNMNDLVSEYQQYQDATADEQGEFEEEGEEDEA
Sequence of UniProt P11362 (whole entry, looked up): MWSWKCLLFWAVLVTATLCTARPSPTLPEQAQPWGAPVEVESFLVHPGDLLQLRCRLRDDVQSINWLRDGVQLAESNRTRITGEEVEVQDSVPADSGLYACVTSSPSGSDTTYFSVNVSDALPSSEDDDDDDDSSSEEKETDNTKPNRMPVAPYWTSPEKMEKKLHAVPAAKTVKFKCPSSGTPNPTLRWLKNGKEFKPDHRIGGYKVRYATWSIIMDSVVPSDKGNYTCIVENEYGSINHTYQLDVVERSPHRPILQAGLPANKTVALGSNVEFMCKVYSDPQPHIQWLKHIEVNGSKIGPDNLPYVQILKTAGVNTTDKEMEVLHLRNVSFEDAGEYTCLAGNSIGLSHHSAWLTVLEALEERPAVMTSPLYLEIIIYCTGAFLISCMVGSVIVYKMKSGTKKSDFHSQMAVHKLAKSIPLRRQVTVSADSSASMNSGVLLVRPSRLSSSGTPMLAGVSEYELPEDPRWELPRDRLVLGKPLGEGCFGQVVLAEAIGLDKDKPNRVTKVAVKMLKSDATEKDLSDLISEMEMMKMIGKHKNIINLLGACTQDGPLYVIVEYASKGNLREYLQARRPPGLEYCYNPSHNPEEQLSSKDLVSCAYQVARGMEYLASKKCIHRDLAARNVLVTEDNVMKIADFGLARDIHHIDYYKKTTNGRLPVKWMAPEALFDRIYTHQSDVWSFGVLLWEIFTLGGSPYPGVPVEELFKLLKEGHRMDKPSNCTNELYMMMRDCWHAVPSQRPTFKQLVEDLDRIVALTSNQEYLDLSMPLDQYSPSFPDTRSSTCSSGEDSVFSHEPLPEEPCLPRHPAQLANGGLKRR
Sequence of UniProt P00691 (whole entry, looked up): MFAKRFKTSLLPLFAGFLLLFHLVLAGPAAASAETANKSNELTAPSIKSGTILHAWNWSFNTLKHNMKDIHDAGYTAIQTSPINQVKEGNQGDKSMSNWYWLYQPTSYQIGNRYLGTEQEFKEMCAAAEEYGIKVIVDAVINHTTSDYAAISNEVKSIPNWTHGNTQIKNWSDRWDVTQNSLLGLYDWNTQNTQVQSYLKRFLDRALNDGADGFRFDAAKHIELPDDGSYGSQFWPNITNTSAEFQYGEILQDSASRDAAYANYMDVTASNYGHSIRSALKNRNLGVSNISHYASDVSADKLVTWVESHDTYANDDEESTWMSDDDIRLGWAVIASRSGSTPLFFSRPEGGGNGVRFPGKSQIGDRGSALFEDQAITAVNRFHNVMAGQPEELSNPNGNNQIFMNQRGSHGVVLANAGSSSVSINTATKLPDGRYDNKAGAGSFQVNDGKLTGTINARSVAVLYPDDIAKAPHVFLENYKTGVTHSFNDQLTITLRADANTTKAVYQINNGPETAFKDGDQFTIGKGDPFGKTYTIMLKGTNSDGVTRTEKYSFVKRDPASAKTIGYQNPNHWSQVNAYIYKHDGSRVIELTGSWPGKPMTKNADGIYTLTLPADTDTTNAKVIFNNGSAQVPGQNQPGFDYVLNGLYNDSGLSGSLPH
Sequence of UniProt Q06911 (whole entry, looked up): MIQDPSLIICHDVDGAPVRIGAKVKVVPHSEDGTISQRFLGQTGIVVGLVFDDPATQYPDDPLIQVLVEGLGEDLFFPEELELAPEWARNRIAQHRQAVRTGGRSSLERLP
Sequence of UniProt O54709 (whole entry, looked up): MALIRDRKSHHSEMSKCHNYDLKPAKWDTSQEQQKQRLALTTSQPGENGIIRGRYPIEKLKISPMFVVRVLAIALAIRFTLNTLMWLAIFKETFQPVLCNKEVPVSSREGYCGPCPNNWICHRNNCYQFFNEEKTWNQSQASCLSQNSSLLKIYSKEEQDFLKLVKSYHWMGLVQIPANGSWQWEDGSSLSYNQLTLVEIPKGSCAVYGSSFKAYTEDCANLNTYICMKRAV
Sequence of UniProt Q03405 (whole entry, looked up): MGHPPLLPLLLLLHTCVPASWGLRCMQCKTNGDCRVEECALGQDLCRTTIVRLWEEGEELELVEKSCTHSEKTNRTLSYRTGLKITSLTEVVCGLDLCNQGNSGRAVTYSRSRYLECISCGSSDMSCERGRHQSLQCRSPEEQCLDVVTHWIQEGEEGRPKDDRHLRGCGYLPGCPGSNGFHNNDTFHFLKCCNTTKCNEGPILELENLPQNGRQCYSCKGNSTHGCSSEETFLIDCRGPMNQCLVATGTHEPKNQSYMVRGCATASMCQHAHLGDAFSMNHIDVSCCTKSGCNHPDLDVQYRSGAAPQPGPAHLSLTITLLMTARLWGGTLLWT
Sequence of UniProt P07492 (whole entry, looked up): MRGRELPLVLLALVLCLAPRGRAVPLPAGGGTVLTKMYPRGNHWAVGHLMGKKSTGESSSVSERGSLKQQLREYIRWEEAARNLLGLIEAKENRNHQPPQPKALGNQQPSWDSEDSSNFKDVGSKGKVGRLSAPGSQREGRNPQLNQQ

| SMILES | target | test | conditions | Kd |
| --- | --- | --- | --- | --- |
| N=C(N)NCCC[C@H](NC(=O)[C@H](Cc1ccccc1)NC(=O)[C@@H]1CCCN1C(=O)[C@H](CO)NC(=O)[C@H](Cc1ccccc1)NC(=O)CNC(=O)[C@@H]1CCCN1C(=O)[C@@H]1CCCN1C(=O)[C@@H](N)CCCNC(=N)N)C(=O)N[C@@H](CCCCNS(=O)(=O)c1ccc(C2=c3cc4c5c(c3Oc3c2cc2c6c3CCCN6CCC2)CCC[N+]=5CCC4)c(S(=O)(=O)[O-])c1)C(=O)O | Oligopeptide-binding protein OppA (oppA, Lactococcus lactis subsp. lactis, UniProt Q07741) | binding, fluorescence anisotropy | pH 6, 18 °C, with: dye-labelled peptide | 8500 ± 400 nM |
| CC(C)C[C@H](NC(=O)[C@@H]1CCCN1C(=O)[C@H](CCCCN)NC(=O)C[C@@H]1O[C@@H](C)[C@@H](O)[C@@H](O)[C@@H]1O)C(=O)NCCCC[C@H](NC(=O)[C@H](CC(C)C)NC(=O)[C@@H]1CCCN1C(=O)[C@H](CCCCN)NC(=O)C[C@@H]1O[C@@H](C)[C@@H](O)[C@@H](O)[C@@H]1O)C(=O)N[C@@H](Cc1ccccc1)C(=O)N[C@@H](CS)C(N)=O | lecB | binding, ITC | pH 7.5 | 300 nM |
| CC(=O)N[C@@H](CCCCN)C(=O)N[C@H](C(=O)NCC(=O)N[C@@H](CC(=O)O)C(=O)N[C@@H](CCC(=O)O)C(=O)N[C@@H](CCCCN)C(=O)N[C@@H](CCCCN)C(=O)NCC(=O)NCC(=O)N[C@@H](Cc1ccc(O)cc1)C(=O)NCC(=O)N[C@@H](CCCNC(=N)N)C(=O)N[C@@H](CCCCN)C(=O)N[C@@H](CCCCN)C(=O)N[C@@H](CCCNC(=N)N)C(=O)N[C@@H](CCCNC(=N)N)C(=O)N[C@@H](CCC(N)=O)C(=O)N[C@@H](CCCNC(=N)N)C(=O)N[C@@H](CCCNC(=N)N)C(=O)N[C@@H](CCCNC(=N)N)C(N)=O)[C@@H](C)O | Heat shock protein HSP 90-alpha (HSP90AA1, Homo sapiens, UniProt P07900) | binding, field-effect biosensor | pH 7.4 | 342000 ± 25300 nM |
| NCC(=O)NCC(=O)N[C@@H](Cc1c[nH]cn1)C(=O)O | HCV IIB RNA | fluorescein-labelled RNA titration | 1 mM TCEP | 400000 ± 100000 nM |
| CSCC[C@H](NC(C)=O)C(=O)N[C@H](C(=O)N[C@@H](Cc1ccc(O)cc1)C(=O)N[C@@H](CCCNC(=N)N)C(=O)N[C@H]1CSCc2cc3cc(c2)CSC[C@H](NC(=O)[C@H](Cc2ccc(O)cc2)NC(=O)[C@@H]2CCCN2C1=O)C(=O)N[C@@H](CC(C)C)C(=O)N[C@@H](Cc1ccc(O)cc1)C(=O)N[C@@H](CC(C)C)C(=O)N[C@H](C(=O)N[C@@H](CC(C)C)C(=O)N[C@@H](CC(C)C)C(=O)N[C@H](C(=O)NCC(=O)N[C@@H](CO)C(=O)NCC(=O)N[C@@H](CO)C(=O)NCC(=O)N[C@@H](CO)C(=O)N[C@@H](CC(=O)O)C(=O)N[C@@H](Cc1ccc(O)cc1)C(=O)N[C@@H](CCCCN)C(=O)N[C@@H](CC(=O)O)C(=O)N[C@@H](CC(=O)O)C(=O)N[C@@H](CC(=O)O)C(=O)N[C@@H](CC(=O)O)C(=O)N[C@@H](CCCCN)C(N)=O)[C@@H](C)O)CSC3)C(C)C | Fibroblast growth factor receptor 1 (FGFR1, Homo sapiens, UniProt P11362) | binding, BLI |  | 840 nM |
| CC(C)C[C@H](NC(=O)[C@H](Cc1ccc(O)cc1)NC(=O)[C@@H](CCCNC(=N)N)NC(=O)[C@@H](CO)NC(=O)[C@H](Cc1ccccc1)NC(=O)[C@H](CC1CCCCC1)NC(=O)[C@H](CC(=O)O)NC(=O)CCC(C(=O)O)N1CCCN2CCN(CCCN(CC(=O)O)CC2)CC1)C(=O)N[C@@H](Cc1c[nH]c2ccccc12)C(=O)N[C@@H](CO)C(=O)O (stereo partly shown) | Urokinase plasminogen activator surface receptor (Homo sapiens, UniProt Q03405) | binding, surface plasmon resonance |  | 27 nM |
| CC[C@H](C)[C@H](NC(=O)[C@H](CCC(N)=O)NC(=O)[C@@H](NC(=O)[C@H](CO)NC(=O)CNC(=O)CNC(=O)CNC(=O)[C@@H]1CCCN1C(=O)[C@@H](NC(=O)[C@H](Cc1c[nH]cn1)NC(=O)[C@H](CCCCN)NC(=O)[C@H](CCCCN)NC(=O)CNC(=O)CNC(=O)CNC(=O)[C@@H](N)CSC1CC(=O)N(c2ccc3c(c2)C(=O)OC32c3ccc(N(C)C)cc3Oc3cc(N(C)C)ccc32)C1=O)C(C)C)C(C)C)C(=O)N[C@H](C(=O)N[C@@H](Cc1ccc(O)cc1)C(=O)N[C@@H](CCCCN)C(=O)N1CCC[C@H]1C(=O)N[C@H](C(=O)N[C@@H](CC(=O)O)C(=O)N[C@@H](CC(C)C)C(=O)O)C(C)C)C(C)C (stereo partly shown) | Tubulin alpha-1A/beta chain (Sus scrofa, UniProt P02550+P02554) | binding, equilibrium dialysis | pH 6.9, 25 °C | 6000 nM |
| COC(=O)C(C)C1N=C(c2ccc(Cl)cc2)c2cc(OC)ccc2-n2c(C)nnc21 (stereo not shown) | Bromodomain-containing protein 2, BD2 (BRD2, Homo sapiens, UniProt P25440) | binding, ITC |  | 300 nM |
| CC[C@H](C)[C@H](NC(=O)[C@H](Cc1c[nH]c2ccccc12)NC(=O)[C@@H](NC(=O)[C@H](CCCCN)NC(=O)[C@H](CO)NC(=O)[C@H](Cc1ccccc1)NC(=O)[C@@H](N)[C@@H](C)O)C(C)C)C(=O)N[C@H](C(=O)N[C@@H](CO)C(=O)N[C@@H](CCCCN)C(=O)N[C@@H](CC(=O)O)C(=O)N[C@H](C(=O)O)[C@@H](C)O)C(C)C | Gastrin-releasing peptide (Homo sapiens, UniProt P07492) | biolayer interferometry |  | 160 nM |
| CC(C)P(=[Se])(NP(=[Se])(C(C)C)C(C)C)C(C)C | Alpha-amylase (Bacillus subtilis, UniProt P00691) | fluorescence quenching | 310 K | 165800 ± 825 nM |
| O=C(O)/C=C/c1ccccc1 | PAL1 (Petroselinum crispum, UniProt P24481, Y110F) | ITC | pH 8.0, 30 °C | 16600 nM |
| CC(C)C[C@H](NC(=O)CN)C(=O)N[C@@H](CO)C(=O)N[C@@H](Cc1ccccc1)C(=O)N[C@@H](C)C(=O)N[C@@H](Cc1ccccc1)C(=O)N1CCC[C@H]1C(=O)N[C@@H](C)C(=O)N[C@@H](CCCCN)C(=O)N[C@@H](CC(=O)O)C(=O)N[C@@H](C)C(=O)N[C@@H](CCC(=O)O)C(=O)N[C@@H](CC(N)=O)C(=O)N[C@@H](C)C(=O)N[C@@H](CO)C(=O)N[C@@H](CO)C(=O)N1CCC[C@H]1C(=O)N[C@H](C(=O)O)C(C)C | Peptide cyclase 1 (Gypsophila vaccaria, UniProt R4P353, S562A) |  |  | 250 ± 39 nM |
| CC(=O)N[C@H]1C(O)O[C@H](CO)[C@@H](O[C@@H]2O[C@H](CO)[C@H](O)[C@H](O)[C@H]2O)[C@@H]1O (stereo partly shown) | Galectin-3 (LGALS3, Homo sapiens, UniProt P17931) | isothermal titration calorimetry |  | 30000 nM |
| CC[C@H](C)[C@H](NC(=O)[C@H](Cc1c[nH]cn1)NC(=O)[C@H](CCCCNC(=O)[C@@H](NC(=O)[C@H](CCCCN)NC(=O)CSC[C@H](NC(=O)[C@H](Cc1ccccc1)NC(=O)[C@H](CCCCNC(=O)[C@H](CC(C)C)NC(=O)[C@@H]1CCCN1C(=O)[C@H](CCCCN)NC(=O)C[C@@H]1O[C@@H](C)[C@@H](O)[C@@H](O)[C@@H]1O)NC(=O)[C@H](CC(C)C)NC(=O)[C@@H]1CCCN1C(=O)[C@H](CCCCN)NC(=O)C[C@@H]1O[C@@H](C)[C@@H](O)[C@@H](O)[C@@H]1O)C(N)=O)[C@@H](C)CC)NC(=O)[C@@H](NC(=O)[C@H](CCCCN)NC(=O)CSC[C@H](NC(=O)[C@H](Cc1ccccc1)NC(=O)[C@H](CCCCNC(=O)[C@H](CC(C)C)NC(=O)[C@@H]1CCCN1C(=O)[C@H](CCCCN)NC(=O)C[C@@H]1O[C@@H](C)[C@@H](O)[C@@H](O)[C@@H]1O)NC(=O)[C@H](CC(C)C)NC(=O)[C@@H]1CCCN1C(=O)[C@H](CCCCN)NC(=O)C[C@@H]1O[C@@H](C)[C@@H](O)[C@@H](O)[C@@H]1O)C(N)=O)[C@@H](C)CC)C(N)=O | lecB | binding, ITC | pH 7.5 | 88 nM |
| CC[C@H](C)[C@H](NC(=O)CNC(C)=O)C(=O)N[C@@H](CCCNC(=N)N)C(=O)N[C@@H](CCC(=O)O)C(=O)N[C@@H](C)C(=O)N[C@H](C(=O)N[C@@H](CC(C)C)C(=O)N[C@@H](CCCNC(=N)N)C(=O)N[C@@H](C)C(=O)N[C@@H](Cc1c[nH]c2ccccc12)C(=O)N[C@@H](CCC(=O)O)C(=O)N[C@@H](CCCNC(=N)N)C(=O)N[C@@H](CCCNC(=N)N)C(=O)N[C@@H](Cc1ccc(O)cc1)C(=O)NCC(=O)N[C@@H](Cc1ccccc1)C(=O)N1CCC[C@H]1C(=O)N[C@@H](CCCNC(=N)N)C(=O)N1CCC[C@H]1C(=O)N[C@@H](CC(C)C)C(=O)N[C@@H](CCCNC(=N)N)C(=O)N[C@@H](CO)C(=O)N[C@@H](CCC(=O)O)C(N)=O)[C@@H](C)O | Antirepressor protein CarS (carS, Myxococcus xanthus, UniProt Q06911) | isothermal titration calorimetry | pH 7.5, 30 °C | 200 ± 17 nM |
| CN1C(=O)[C@H](Cc2ccccc2)N(C)C(=O)[C@@H]2[C@H]1CCN2Cc1cc(Cl)cc(Cl)c1 | NKG2-D type II integral membrane protein (Klrk1, Mus musculus, UniProt O54709) | binding, surface plasmon resonance |  | > 80000 nM |

Excerpt of the above:
| SMILES | target | test | conditions | Kd |
| --- | --- | --- | --- | --- |
| N=C(N)NCCC[C@H](NC(=O)[C@H](Cc1ccccc1)NC(=O)[C@@H]1CCCN1C(=O)[C@H](CO)NC(=O)[C@H](Cc1ccccc1)NC(=O)CNC(=O)[C@@H]1CCCN1C(=O)[C@@H]1CCCN1C(=O)[C@@H](N)CCCNC(=N)N)C(=O)N[C@@H](CCCCNS(=O)(=O)c1ccc(C2=c3cc4c5c(c3Oc3c2cc2c6c3CCCN6CCC2)CCC[N+]=5CCC4)c(S(=O)(=O)[O-])c1)C(=O)O | Oligopeptide-binding protein OppA (oppA, Lactococcus lactis subsp. lactis, UniProt Q07741) | binding, fluorescence anisotropy | pH 6, 18 °C, with: dye-labelled peptide | 8500 ± 400 nM |
